Experimental data collected from several papers.
Each numbered part is a random draw from the data of one study; scales do not carry over between parts. Values joined by “and” are separate records of one study, mostly repeats; a detail may differ. Converted amounts (≈) assume the structure as drawn.
Sequence of UniProt Q99720 (whole entry, looked up): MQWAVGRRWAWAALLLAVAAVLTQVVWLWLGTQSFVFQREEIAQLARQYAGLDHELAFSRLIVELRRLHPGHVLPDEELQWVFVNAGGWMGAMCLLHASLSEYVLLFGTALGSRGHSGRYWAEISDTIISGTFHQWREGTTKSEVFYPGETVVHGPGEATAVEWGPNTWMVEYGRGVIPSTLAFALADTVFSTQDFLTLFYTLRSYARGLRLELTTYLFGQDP
Sequence of UniProt P9WI81 (whole entry, looked up): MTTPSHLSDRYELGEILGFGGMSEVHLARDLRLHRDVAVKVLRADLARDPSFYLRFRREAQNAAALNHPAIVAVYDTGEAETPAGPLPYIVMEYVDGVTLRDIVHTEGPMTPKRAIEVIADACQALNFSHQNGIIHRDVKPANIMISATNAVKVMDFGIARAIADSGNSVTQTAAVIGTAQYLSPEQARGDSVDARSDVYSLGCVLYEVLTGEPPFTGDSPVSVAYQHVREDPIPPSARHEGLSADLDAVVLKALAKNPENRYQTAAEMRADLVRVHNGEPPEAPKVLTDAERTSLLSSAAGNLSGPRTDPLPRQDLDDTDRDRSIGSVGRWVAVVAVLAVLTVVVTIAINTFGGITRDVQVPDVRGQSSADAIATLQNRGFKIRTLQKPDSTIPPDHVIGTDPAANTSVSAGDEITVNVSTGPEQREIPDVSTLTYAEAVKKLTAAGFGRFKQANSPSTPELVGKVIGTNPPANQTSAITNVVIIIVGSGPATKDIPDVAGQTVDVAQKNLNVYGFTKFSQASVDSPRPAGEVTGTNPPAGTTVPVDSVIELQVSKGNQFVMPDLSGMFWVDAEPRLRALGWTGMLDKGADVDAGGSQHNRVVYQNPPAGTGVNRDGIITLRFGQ
Sequence of UniProt P61075 (whole entry, looked up): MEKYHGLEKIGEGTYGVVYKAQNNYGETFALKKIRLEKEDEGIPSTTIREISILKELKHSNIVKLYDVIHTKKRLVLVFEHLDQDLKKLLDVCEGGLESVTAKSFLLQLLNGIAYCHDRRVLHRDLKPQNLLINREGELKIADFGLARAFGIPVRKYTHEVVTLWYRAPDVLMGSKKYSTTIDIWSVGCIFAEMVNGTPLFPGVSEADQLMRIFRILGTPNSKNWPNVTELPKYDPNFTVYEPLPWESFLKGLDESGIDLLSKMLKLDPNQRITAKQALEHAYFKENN
Sequence of UniProt P62344 (whole entry, looked up): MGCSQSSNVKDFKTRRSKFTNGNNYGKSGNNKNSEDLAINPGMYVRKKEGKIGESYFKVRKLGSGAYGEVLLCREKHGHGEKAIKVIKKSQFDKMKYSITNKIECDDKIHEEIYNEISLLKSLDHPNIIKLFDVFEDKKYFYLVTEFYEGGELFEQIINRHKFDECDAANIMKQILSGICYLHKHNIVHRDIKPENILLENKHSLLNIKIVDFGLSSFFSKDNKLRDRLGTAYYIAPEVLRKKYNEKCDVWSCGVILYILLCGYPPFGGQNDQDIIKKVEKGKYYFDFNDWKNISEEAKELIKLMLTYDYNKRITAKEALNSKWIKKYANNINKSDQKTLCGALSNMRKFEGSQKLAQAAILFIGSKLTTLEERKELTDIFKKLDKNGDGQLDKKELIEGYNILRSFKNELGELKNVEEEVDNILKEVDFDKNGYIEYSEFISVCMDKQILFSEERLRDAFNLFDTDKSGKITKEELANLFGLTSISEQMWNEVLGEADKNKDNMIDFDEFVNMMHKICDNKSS

Study 1
Cell line: mouse MPNST tumor cells
Method: high-content nuclear imaging
Measured: cell number
Tested at: 10 µM
Time: 12 h
Setting: mean of 2 replicates
Reference: plate mean
Reading: higher = more cells
`CC(=O)[C@H]1CC[C@H]2[C@@H]3CC[C@H]4C[C@H](O)CC[C@]4(C)[C@H]3C(=O)C[C@]12C` has a nuclei count of 1.48 z-score.
With `Fc1ccc(C(OCCN2CCN(CCCc3ccccc3)CC2)c2ccc(F)cc2)cc1` the nuclei count was -2.07 z-score and -1.07 z-score.
For `CN(C(=O)Oc1nsnc1N1CCOCC1)C1CCCCCCC1`, the nuclei count was 1.32 z-score.
For `COc1ccc(C(=O)N2CCCC2=O)cc1`, the nuclei count was 0.00595 z-score and 0.155 z-score.

Study 2
SMILES: CNC(=O)c1ccc(-c2cnn3ccc(C(=O)N(C)c4ccc(Cl)c(C(=O)OC)c4)cc23)cc1
Organism: Cryptosporidium parvum
Host: neonatal calves
Dose: dose not given
Reading: direction not given
It gave 2 and 1 for “fecal consistency score” (day 6 post-treatment).
For day 8 post-treatment: “fecal consistency score” read 1 and 2 and 3.
day 3 post-treatment — “fecal consistency score”: 2 and 3 and 1.

Study 3
Compound: CCCCC[C@@H](O)CC(=O)N[C@@H]1C(=O)N[C@H](CCCNC(=N)N)C(=O)N[C@@H](CO)C(=O)NCC(=O)N(C)[C@H](Cc2ccccc2)C(=O)N[C@@H](CC(C)C)C(=O)N[C@H](CCCNC(=N)N)C(=O)N[C@@H](CO)C(=O)N[C@H]([C@H](C)O)C(=O)N[C@H](Cc2c[nH]c3ccccc23)C(=O)N[C@@H]([C@@H](C)CC)C(=O)NCC(=O)O[C@@H]1C
Organism: Staphylococcus aureus
Strain: USA300
The MIC was 32 µg/mL (≈ 21.1 µM) (added: menaquinone 4 µg/mL).
It gave 8 µg/mL (≈ 5.27 µM) for MIC (added: ubiquinone 64 µg/mL).
For added: menaquinone 0.125 µg/mL: MIC read 16 µg/mL (≈ 10.5 µM).
For added: menaquinone 0.25 µg/mL: MIC read 16 µg/mL (≈ 10.5 µM).
It gave 16 µg/mL (≈ 10.5 µM) for MIC (added: menaquinone 0.5 µg/mL).

Single results of other studies
The remaining binding of `CC(=O)N1CCC(c2ccc(C(=O)NC(=N)N)cc2C(F)(F)F)CC1` is reported as 87% (Calcium-dependent protein kinase 1 (CDPK1, Plasmodium falciparum, UniProt P62344); cell-free assay, competition with immobilised ligand; 1 µM).
`Cc1cc(C)c(-n2ccn3nc(-c4cccnc4)cc23)cc1NC(=O)c1cc(C#N)cc(S(F)(F)(F)(F)F)c1` gave a remaining binding of 90.9% (Cyclin-dependent kinase 2 homolog (CRK2, Plasmodium falciparum, UniProt P61075); cell-free assay, competition with immobilised ligand; 0.1 µM).
`Cc1c(N2CCNCC2)nc2ccc(Br)cc2c1C(=O)NC[C@H](CCC(=O)O)c1ccccc1Cl` gave an inhibition of 36.5% (Sigma non-opioid intracellular receptor 1 (SIGMAR1, Homo sapiens, UniProt Q99720); ligand displacement; 10 µM).
The remaining binding of `Cc1nc(N2CC[C@@H](O)C2)ncc1-c1cc(C(F)(F)F)cc2[nH]ncc12` is reported as 89% (Serine/threonine-protein kinase PknB (pknB, Mycobacterium tuberculosis, UniProt P9WI81); cell-free assay, competition with immobilised ligand; 1 µM).

A few entries again (study 3):
For added: menaquinone 0.125 µg/mL: MIC read 16 µg/mL (≈ 10.5 µM).
For added: menaquinone 0.25 µg/mL: MIC read 16 µg/mL (≈ 10.5 µM).
